Experimental data of several laboratories.
Each line is one published result; not all experiments were run side by side. Values joined by “and” are separate records of one study, mostly repeats; a detail may differ. ± marks the error that the study gave. Converted amounts (≈) assume the structure as drawn.

Under “participants with abdominal pain”, `CC(C)c1nc(N(C)S(C)(=O)=O)nc(-c2ccc(F)cc2)c1/C=C/[C@@H](O)C[C@@H](O)CC(=O)O` is recorded as 8.3% (human; oral, 10 mg, alone).
`COc1cccc(OC)c1-c1cc(C(=O)NC2(C(=O)O)C3CC4CC(C3)CC2C4)nn1-c1ccc(C(=O)N(C)CCCN(C)CCCN(C)C(=O)CN2CCN(CC(=O)[O-])CCN(CC(=O)[O-])CCN(CC(=O)[O-])CC2)cc1C(C)C.[177Lu+3]` (stereo not shown) gave a tumour-to-muscle ratio of 13.3 (mouse, HT-29 xenograft; 4 h post injection, biodistribution; relative to: tumour over muscle uptake).
`COc1ncc(-c2nc3c(n2C(C)C)[C@H](c2ccc(Cl)cc2)N(c2cc(Cl)cn(C)c2=O)C3=O)c(OC)n1`: “AUC(0-t) geometric mean” 22900 ng·h/mL (human patients, plasma; oral, 250 mg, 0-24 h, high-dose arm, cycle 2 day 1).
The lactate dehydrogenase of `Oc1ccc(/C=C/c2cc(O)cc(O)c2)cc1` is reported as 1140 IU/L and 1490 IU/L and 942 IU/L (rat, azoxymethane-injected, blood at sacrifice; 10 mg/kg).
Under “median placental accumulation”, `CC[C@H]1CC[C@H](c2ccc(-c3ccc(F)c(F)c3)cc2)CC1` is recorded as 121 ng/g (rat, placenta; 5000 ng/mL in perfusate, high dose, mixture of 21 LCMs).
`CC(=O)O[C@H]1C(=O)[C@@]2(C)[C@H]([C@H](OC(=O)c3ccccc3)[C@]3(O)C[C@H](OC(=O)[C@H](O)[C@@H](NC(=O)c4ccccc4)c4ccccc4)C(C)=C1C3(C)C)[C@]1(OC(C)=O)CO[C@@H]1C[C@@H]2O`: “adverse event incidence” 59% (item: Anaemia; patients with advanced solid tumours; intravenous, dose not given, all grades, possibly related to drug).
For `C[C@@H](O)[C@H](NC(=O)c1ccc(-c2ccc(Br)cc2)cc1)C(=O)NCC1(C)NC(=O)NC1=O` (stereo partly shown), the thermodynamic solubility was 257 µM (≈ 130 µg/mL) (aqueous buffer; pH 7.4).
The clearance of `Cc1ccc([C@@H]2O[C@H](CO)[C@@H](O)[C@H](O)[C@H]2O)cc1Cc1ccc(-c2ccc(F)cc2)s1` is reported as 12.3 L/h (human, maintenance hemodialysis patients; oral, 100 mg once daily, steady state, mean).
`CC(C)[C@@H](CN1CC[C@@](C)(c2cccc(O)c2)[C@@H](C)C1)NC(=O)[C@H]1Cc2ccc(O)cc2CN1` has an AUClast of 784 ng·h/mL (Sprague-Dawley rat, plasma; intraperitoneal, 3 mg/kg).
`N#Cc1ccc2c(c1)[C@H]1CCCN(C(=O)c3ccc4[nH]cnc4c3)[C@H]1C2` gave an androstenedione level of 5.6 nmol/L (human, male; 80 mg, end of trial).
For `O=C(O)c1cccc(C(=O)O)c1`, “apparent dissolution enthalpy” read 3.5 kcal/mol (betaine/glycerol DES-water; DES mass fraction 0.70).
Under “median fetal accumulation”, `CCCC1CCC(c2ccc(OCC)c(F)c2F)CC1` (stereo not shown) is recorded as 0.165 ng/g (rat, fetus; 10 ng/mL in perfusate, low dose, mixture of 21 LCMs).
`Cc1ccc(Sc2ccccc2N2CCNCC2)c(C)c1`: “adverse event incidence” 0% (TEAE blood in urine; healthy adult men; oral, 40 mg single dose, 10 days).
`C[C@@H](Nc1cc(F)cc(F)c1)c1cc(C(=O)N(C)C)cc2c(=O)cc(N3CCOCC3)oc12`: “related serious adverse events” 0% (item: Pain; advanced solid tumour patients; oral, dose not given, dose finding).
With `Cl.[2H]C([2H])([2H])CC(=O)c1cnc(NC(=O)C2CC2)cc1Nc1cccc(-c2ncn(C([2H])([2H])[2H])n2)c1OC` the Tmax was 1.08 h (median; human; oral, 40 mg twice daily, day 14, fasted, tablet, multiple dose).
The concentration of `CN(C(=O)n1cnc(-c2ccc[n+]([O-])c2)c1)[C@H]1CC[C@H](O)CC1` is reported as 11.9 ± 5.9 ng/g (Wistar rat, medulla oblongata; oral, 10 mg/kg of BIA 10-2474, 1 h, single dose).
Under “unchanged dose in urine”, `CN1C(=O)[C@@H](NC(=O)c2nnc(Cc3ccccc3)[nH]2)COc2cccnc21` is recorded as less than 1% (human, both sexes; oral, 800 mg single, 24 h; relative to: dose).
For `Cn1cc(Nc2nccc(-c3ccc4c(c3)CN(C3COC3)CC[C@H]4NC(=O)c3cn(C(C)(C)C)nn3)n2)cn1`, “NKT cell count change” read -16% (human, whole blood; 300 mg twice daily, day 7; relative to: pre-dose baseline).
`O=C(Nc1ccc(OC(F)(F)Cl)cc1)c1cnc(N2CC[C@@H](O)C2)c(-c2ccn[nH]2)c1` — result for “grade ≥3 event rate”: 3.8% (per treatment cycle, item: absolute neutrophil decrease; human patients; oral, dose not given, 28 day cycle, dose-finding study).
The AUC of `O=C(O)c1cc(O)c(O)c(O)c1` is reported as 1.71 ± 0.31 µM·h (broiler chickens, serum; oral, in feed, 2000 mg/kg feed, wheat diet with tannins).
For `Cc1ccc([C@@H]2O[C@H](CO)[C@@H](O)[C@H](O)[C@H]2O)cc1Cc1ccc(-c2ccc(F)cc2)s1`, “urinary sodium excretion change” read 54.1 mEq (Japanese type 2 diabetes patients; 100 mg, day 1, 24 h urine collection; relative to: baseline).
With `C=CC(=O)NC1CCN(c2ncc3ncnc(Nc4ccc(Oc5ccc6c(c5)ncn6C)c(C)c4)c3n2)CC1` the blood-to-plasma ratio was 0.879 (item: total radioactivity; healthy male human, whole blood and plasma; oral, 60 mg, 12 h, geometric mean).
`CNCc1ccc(-c2[nH]c3cc(F)cc4c3c2CCNC4=O)cc1` has a nausea incidence of 0% (human patients; oral, 600 mg twice daily, grade 5).
With `Fc1cccc(F)c1-c1nc(N2CCC(c3ccccn3)C2)c2ccccc2n1` (stereo not shown) the kinetic solubility was 9 µg/mL (≈ 23.2 µM) (Japanese Pharmacopoeia disintegration test solution 2; pH 6.8).
For `O=C(Nc1cnccc1Cl)N1CCN(Cc2ccc3c(c2)OC(F)(F)O3)CC1`, “adverse event incidence” read 0% (item: Presyncope; human healthy young men; 25 mg, multiple dose).
With `CC(=O)N(C)C1CCN(c2cc(F)cc(NC(=O)c3cc4c(F)ccc(C)c4[nH]3)c2)C1` (stereo not shown) the plasma concentration was 16.4 ng/mL (CD1 mouse, plasma; oral, 50 mg/kg, 0.25 h).
For `CCc1c(-c2ccccc2)c(-c2ccccc2)nn1-c1ccccc1-c1cccc(OCC(=O)O)c1`, the concentration was 15800 ng/g and 21600 ng/g (Sprague-Dawley rat, small intestine; oral, 10 mg/kg, 4 h).
`CC(C)(C(=O)N1CCOc2c(C#N)cncc2C1)C(F)F`: “subjects with contact dermatitis TEAE” 16.7% (human, both sexes; oral, 30 mg single dose).
`Cc1cc(-c2nccc3c2ccn3CC(=O)Nc2ccc(-c3cnccn3)cn2)ccn1` — result for “subjects with any TEAE”: 88.9% (human; 15 mg once daily, multiple ascending dose).
`CC(C)c1nc(N(C)S(C)(=O)=O)nc(-c2ccc(F)cc2)c1/C=C/[C@@H](O)C[C@@H](O)CC(=O)O` — result for “participants with TEAE”: 6.9% (item: Diarrhea; human; oral, 10 mg).
`NC[C@H](NC(=O)c1ccc(C#CC#Cc2ccccc2)cc1)C(=O)NO` has a thermodynamic solubility of less than 7.14 µM (aqueous buffer; pH 7.4).
`COc1cc(Nc2ncc3c(n2)-c2ccc(Cl)cc2C(c2c(F)cccc2OC)=NC3)ccc1C(=O)O` — result for “decreased neutrophil count incidence”: 13% (patients; oral, dose not given, grade 2, any attribution, added: pembrolizumab).
The kinetic solubility of `Cc1cccnc1CNc1nc(-c2ccccn2)nc2ccccc12` is reported as 73 µg/mL (≈ 223 µM) (Japanese Pharmacopoeia disintegration test solution 2; pH 6.8).
`CC(=O)O[C@H]1C(=O)[C@@]2(C)[C@H]([C@H](OC(=O)c3ccccc3)[C@]3(O)C[C@H](OC(=O)[C@H](O)[C@@H](NC(=O)c4ccccc4)c4ccccc4)C(C)=C1C3(C)C)[C@]1(OC(C)=O)CO[C@@H]1C[C@@H]2O` gave a clearance change of -13% (human patients; intravenous, dose not given, cycle 2 day 1, mean; relative to: cycle 1 day 8).
`CNCCOC12CC3(C)CC(C)(CC(Cn4ncc(-c5ccc(N6CCc7cccc(C(=O)Nc8nc9ccccc9s8)c7C6)nc5C(=O)O)c4C)(C3)C1)C2`: “dP/dt at 50 change” -24% (beagle dog, male, anaesthetised; intravenous bolus, 0.03 mg/kg, 180 min; relative to: baseline).
For `c1csc(CNc2cc[nH]n2)c1`, the tail DNA was 1.93% (alkaline comet; Hsd:ICR(CD-1) mice, male, liver; oral, 500 mg/kg/day, 3 days).
For `OC[C@H]1O[C@@H](c2ccc(F)c(Cc3cc4ccccc4s3)c2)[C@H](O)[C@@H](O)[C@@H]1O`, “hypoglycaemia adverse events” read 4 % patients (Japanese type 1 diabetes patients; oral, 25 mg/day, day 13).
With `C[C@@H](N)C1CCN(S(=O)(=O)c2cccc3cnccc23)CC1` the TEAE incidence was 0% (item: Rash; healthy volunteers; 150 mg, fed).
For `Cc1cc(-c2nnc(N)nc2-c2ccc(F)cc2)cc(Cl)n1`, “patients with treatment-related adverse events” read 29.4% (item: Vomiting; human phase Ia/Ib NSCLC, post-immunotherapy; oral, 100 mg once daily).
For `COc1cc([C@H]2Oc3cc([C@H]4Oc5cc(O)cc(O)c5C(=O)[C@@H]4O)ccc3O[C@@H]2CO)ccc1O`, the AUC(0-4h) was 0.36 µM·h (FVB wild-type mice, plasma; oral gavage, 500 mg/kg silymarin, geometric mean).
The concentration of `O=C(N[C@H](Cc1c[nH]c2ccccc12)C(=O)Nc1ccncc1)c1ccc(-c2ccc(F)c(C(F)(F)F)c2)cc1F` is reported as 21.4 µM (Swiss Webster mouse, female, lung; oral, 50 mg/kg, 8 h, 20% HPβCD vehicle).
`C=CC(=O)N1CCC(Oc2cc3c(Nc4ccc(Cl)c(Cl)c4F)ncnc3cc2OC)CC1` has an AUC(0-inf) of 3820 ± 495 ng·h/mL (male Sprague-Dawley rats, plasma; oral, 2 mg/kg).
`O=C1NCCc2nc(OCc3cccc(F)c3)ccc21`: “respiratory rate score” 0 (modified Irwin test; Sprague-Dawley rat, male; oral, 100 mg/kg, 30 min; higher = stronger change).
`CCCc1ccc(-c2ccc(-c3cc(F)c(F)c(F)c3)c(F)c2)cc1`: “median placental accumulation” 4.18 ng/g (rat, placenta; 1000 ng/mL in perfusate, middle dose, mixture of 21 LCMs).
`O=C(Nc1nc2cccc(-c3ccc(CN4CCS(=O)(=O)CC4)cc3)n2n1)C1CC1`: “treatment-emergent adverse events” 0% (item: dyspepsia; human rheumatoid arthritis patients; oral, 200 mg once daily, 4 weeks, regardless of relatedness).
`Cc1nc2cccc(OCC(C)(C)C(=O)NC(C)C)c2c(N)c1C(=O)O` has an AUClast ratio of 1.2 ± 0.55 (Sprague-Dawley rat, female, plasma; oral, 10 mg/kg, day 7 over day 1, 7-day repeated dosing; relative to: day 7 over day 1).

A few entries again:
`O=C1NCCc2nc(OCc3cccc(F)c3)ccc21`: “respiratory rate score” 0 (modified Irwin test; Sprague-Dawley rat, male; oral, 100 mg/kg, 30 min; higher = stronger change).
`CCCc1ccc(-c2ccc(-c3cc(F)c(F)c(F)c3)c(F)c2)cc1`: “median placental accumulation” 4.18 ng/g (rat, placenta; 1000 ng/mL in perfusate, middle dose, mixture of 21 LCMs).
`O=C(Nc1nc2cccc(-c3ccc(CN4CCS(=O)(=O)CC4)cc3)n2n1)C1CC1`: “treatment-emergent adverse events” 0% (item: dyspepsia; human rheumatoid arthritis patients; oral, 200 mg once daily, 4 weeks, regardless of relatedness).
